Published values from different studies.

For CN1CCC[C@]1(C)/C=C/S(=O)(=O)NC(=O)Nc1c2c(cc3c1C(O)CC3)CCC2 (stereo partly drawn), “Tmax at first steady-state dose” read 3 h (human, plasma; oral, 12.5 mg twice daily of parent drug, day 14, metabolite of dosed drug).
CC[C@H](C)[C@@H]1NC(=O)[C@H](Cc2ccc(O)cc2)NC(=O)CCCSC[C@@H](C(=O)N(CC(=O)N[C@@H](CC(C)C)C(=O)NCC(N)=O)Cc2ccc(F)cc2)NC(=O)[C@H](CC(N)=O)NC(=O)[C@H](CCC(N)=O)NC1=O gave a tmax median of 0.33 h (healthy human, plasma; intranasal, 200 µg every 3 h, after last dose).
COc1cc2c(cc1O)CCN1C[C@@H](CC(C)C)[C@@H](O)C[C@H]21 gave a Tmax of 2.25 h (refers to: non-deuterated analyte; healthy human male, plasma; oral, 25 mg, median, [14C]-tetrabenazine dosed).
CN1CCC[C@]1(C)/C=C/S(=O)(=O)NC(=O)Nc1c2c(cc3c1CC(O)C3)CCC2 (stereo partly drawn): “Tmax at second steady-state dose” 4 h (human, plasma; oral, 50 mg twice daily of parent drug, day 14, metabolite of dosed drug).
For CCCCCCCOc1ccc(CC[C@](N)(CO)COP(=O)(O)O)cc1C(F)(F)F, the Tmax was 12 h (healthy human males, plasma; oral, 0.75 mg, day 1, median).
With COc1cc2c(cc1OC)[C@H]1C[C@H](O)[C@H](CC(C)C)CN1CC2 the Tmax was 1.5 h (refers to: non-deuterated analyte; healthy human male, plasma; oral, 25 mg, median, [14C]-tetrabenazine dosed).
With CN(C(=O)C(C)(C)c1cc(C(F)(F)F)cc(C(F)(F)F)c1)c1cnc(N2C[C@H]3COCCN3C[C@H]2CO)cc1-c1ccc(F)cc1CO the Tmax was 1.75 h (human, plasma; oral, 120 mg, median).
For CNc1nc(N)nc2c1ncn2C1OC(COP(=O)(O)NC(C)C(=O)O)C(O)C1(C)F (stereo not drawn), the Tmax was 1 h (healthy adult human, plasma; oral, 550 mg, day 12, median, fasted).
Under “Tmax at second steady-state dose”, CN1CCC[C@]1(C)/C=C/S(=O)(=O)NC(=O)Nc1c2c(cc3c1CCC3)CC=C2 is recorded as 3 h (human, plasma; oral, 12.5 mg twice daily of parent drug, day 14, metabolite of dosed drug).
For Cc1cc(F)ccc1-c1cc(N2C[C@H]3COC(O)CN3C[C@H]2CO)ncc1N(C)C(=O)C(C)(C)c1cc(C(F)(F)F)cc(C(F)(F)F)c1 (stereo partly drawn), the Tmax was 2.01 h (human, plasma; oral, 120 mg, median).
Under “Tmax at first steady-state dose”, CN1CCC[C@]1(C)/C=C/S(=O)(=O)NC(=O)Nc1c2c(cc3c1CCC3O)CCC2 (stereo partly drawn) is recorded as 2 h (human, plasma; oral, 100 mg twice daily of parent drug, day 14, metabolite of dosed drug).
CC(C)C[C@H](NC(=O)[C@H](CCCN)NC(=O)CNC(=O)[C@@H](NC(=O)[C@H](C)NC(=O)[C@@H]1CSCSC[C@H](NC(=O)CC[C@H](N)C(=O)O)C(=O)N[C@@H](CC(N)=O)C(=O)N[C@@H]([C@@H](C)O)C(=O)N[C@@H](C)C(=O)N[C@@H]([C@@H](C)O)C(=O)N1)[C@@H](C)O)C(=O)N[C@@H](C)C(=O)N[C@@H](CCC(=O)O)C(=O)N[C@@](C)(Cc1ccccc1)C(=O)N[C@@H](CC(C)C)C(=O)N[C@H](C(=O)N[C@@H](CCCNC(=N)N)C(=O)N[C@@H](CO)C(=O)N[C@@H](CO)C(=O)N[C@@H](CC(N)=O)C(=O)N(C)[C@@H](CC(N)=O)C(=O)N[C@@H](Cc1ccccc1)C(=O)NCC(=O)N1CCC[C@H]1C(=O)N[C@@H](CCCCNC(=O)CC[C@H](NC(=O)CC[C@H](NC(=O)CCCCCCCCCCCCCCCCCCC(=O)O)C(=O)O)C(=O)O)C(=O)N[C@@H](CC(C)C)C(=O)N1CCC[C@H]1C(=O)N1CCC[C@H]1C(=O)N[C@H](C(=O)N[C@@H](CCC(=O)O)C(=O)N[C@H](C(=O)NCC(=O)N[C@@H](CO)C(=O)N[C@@H](CC(N)=O)C(=O)N[C@H](C(=O)N[C@@H](Cc1ccc(O)cc1)C(N)=O)[C@@H](C)O)C(C)C)[C@@H](C)O)C(C)C has a tmax of 72 to 132 h (healthy human; subcutaneous, 12 mg).
